Experimental data of several laboratories.
Parts stem from different laboratories: compare values within a part only.

Set 1 — technique: RNA Bind-n-Seq; form: RNA; medium: in vitro; tested at: not given; setting: RNA with constant flanks, ends assumed; relative to: input RNA pool; reading: higher = stronger binding; measurement: bound/input enrichment
Target: RING finger protein unkempt homolog, zinc fingers 1-6, GST-SBP tag (UNK, Homo sapiens, UniProt Q9C0B0, residues 30-357)
Constant ends, left off below: GGGAGUUCUACAGUCCGACGAUC … CAACAGAGGAUUGAGCAUCA
Target sequence (chain): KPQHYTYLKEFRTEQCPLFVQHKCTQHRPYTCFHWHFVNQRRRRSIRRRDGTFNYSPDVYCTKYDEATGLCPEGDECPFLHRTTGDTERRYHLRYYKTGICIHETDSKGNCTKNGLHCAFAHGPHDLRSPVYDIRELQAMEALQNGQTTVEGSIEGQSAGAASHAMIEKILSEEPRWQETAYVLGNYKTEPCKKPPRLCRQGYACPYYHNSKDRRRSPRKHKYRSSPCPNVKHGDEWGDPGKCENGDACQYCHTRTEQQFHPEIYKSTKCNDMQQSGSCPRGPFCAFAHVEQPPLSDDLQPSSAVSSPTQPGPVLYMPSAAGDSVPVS
Sequence = UUGUGGGCGUUCUCGGGGAGCUGCUGCCGUAGCUGCCGCCGCCGCUACCACCGCGUUCGGGUGCCGAAUUUGGAAUCCCUGCGCCGCGUUAACAAUGAAGCAGAGUUCGAACGUGCCGGC; value = 0.112 ratio
Sequence = GAGGAGAAGCCGCCUAAUCCUAUGGAAGGCAUGACAGAGGAGCAGAAGGAACAUGAGGCCAUGAAGCCCGUGAACAUGUUUGACAAGCUCUCCAGGCACAGAGUCAUCCAACCCAUGGGG; value = 0.137 ratio
Sequence = CCUUUCUUAGCAGUUAACCGAGAGCGGCGCCUCCCUCCGCGAGGAAACGGCAGCGUGUGCUGCCGCGUGGGUAUGGCCGACUACUCCACAGUGCCUCCGCCGUCGUCUGGCUCGGCUGGC; value = 0.519 ratio
Sequence = UUUGAUGUAAGAAUUGAACGGGACGCACAAGAGAUGGCUGAUAGUUUGGGAGUUAGAAUCUUCCGUGCAGAAAUUAUUUAUCACUUAUUUGAUGCCUUUACAAAAUACAGACAGGACUAC; value = 1.21 ratio
Sequence = AAGGUUAAGUACCACAUUCUCCUCUAAACCUUGCCUACGACAUGUUUAAUACUUCAUCUACACCGCAGCCCUUCAGAUAAUCACAACCACUUUGCCCCCAAGUUUUCAGGUUAAGUAGCA; value = 0.85 ratio
Sequence = GAUGAAGUGGAGAAGUACAACCGAAAUGGAGUCAAUGCUCUGCAGCUGGAUCCAGCACUAAACCGACUUUUCACAGCCGGUCGAGACUCUAUCAUAAGAAUAUGGAGUGUCAAUCAGCAC; value = 0.114 ratio
Sequence = AAAGGCGCAAAGCUCAUCCUGAUCUUUCUGUUCCUAGGAGCCGUUCAGUCCAAUGCAUUGACCGUUAAUUUGACAGAUUCAAAGGGUACUUGCCUUUAUGCAGAAUGGGAGAUGAAUUUC; value = 0.125 ratio
Sequence = CGGAGGUAAACCCUGCACGCACAUCGUGCUUCGGCGUGUCAGGUAUUUGAAUUUAGAGUUCCGUUUCCCAUAACAUUUUCUACAAGAAGAAUCUUGGUAGUGUCUCAAAGACAUCACUGA; value = 0.249 ratio
Sequence = CCUGACAAGCUGAACAAUGGUGGAUCUGAUAGCCCAUGUGACUUGAAAUCACCUAGUGCUUUCCGUGAAAACCGGCAGGACUAUUUUGAAUAUGAGUCAACUAACCCGUUUACAGCAAAA; value = 0.157 ratio
Sequence = AAUUCACAGAAGCACAAUUUUGCCCUUUGCGAGACAUUGUUGCCUCUAUCUAGUCCUACAAGCCGGGUUUUGCAUACUGUGUUUGCCCCUAGGGUUGUCAGUGCAUCAGAAAUACUUCUA; value = 0.308 ratio
Sequence = GAGGAGUCUGGGUUCAGGGAGCCCGUGCUGGAUGCCAAGUCGGAGGUCACGGGCCAGCUUACCGAUUUUCAGUGGAAACUGGGCAUGGCUGUGAGCUCUGACAGCUGCAGAUCUCUCAAG; value = 0.0523 ratio

Set 2 — technique: protein-binding microarray; form: double-stranded DNA, one strand shown; medium: in vitro; tested at: 2200 nM top; setting: 60-bp whole probe; together with: salmon DNA 0.4 mg/ml; relative to: random background probes; reading: higher = stronger binding; measurement: fitted relative affinity; constant ends, left off below: GCCTAGCAC … GTCTTGATTCGCTTGACGCTGCTG
Target: Interferon regulatory factor 7, full length, phosphomimetic (IRF7, Homo sapiens, UniProt Q92985, residues 1-503, S471D/S472D/S475D/S476D/S477D/S483D/S484D/S487D)
Chain of UniProt Q92985 (whole entry, unmodified, looked up): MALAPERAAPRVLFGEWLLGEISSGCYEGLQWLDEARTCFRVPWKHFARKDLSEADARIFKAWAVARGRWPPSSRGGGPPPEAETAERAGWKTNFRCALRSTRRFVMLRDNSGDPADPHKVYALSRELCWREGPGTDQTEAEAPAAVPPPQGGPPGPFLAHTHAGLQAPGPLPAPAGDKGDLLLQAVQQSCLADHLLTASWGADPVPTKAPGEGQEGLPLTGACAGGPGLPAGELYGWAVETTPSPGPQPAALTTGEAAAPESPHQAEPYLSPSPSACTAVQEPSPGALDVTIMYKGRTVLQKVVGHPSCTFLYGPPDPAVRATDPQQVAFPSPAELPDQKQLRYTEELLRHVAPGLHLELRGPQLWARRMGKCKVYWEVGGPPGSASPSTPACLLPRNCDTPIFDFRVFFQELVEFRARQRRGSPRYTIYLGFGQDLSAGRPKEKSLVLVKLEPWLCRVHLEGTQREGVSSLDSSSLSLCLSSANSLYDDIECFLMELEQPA
Sequence = GTGTATATGTGATTAAAATAGTGCTAG; value = 0.451 z-score
Sequence = TTAGATACCGGGACTGGATTAGTGCTA; value = -0.463 z-score
Sequence = TCACCTGAATGAAAACATACTGTGCTA; value = 0.116 z-score
Sequence = ACTCCTGTACATCTATGTAGGTGCTAG; value = 1.55 z-score
Sequence = CACGGTATCGACTATCGGGACGTGCTA; value = 0.0332 z-score
Sequence = TCATGTCTGCCTTTCAAACTGTGCTAG; value = 1.7 z-score
Sequence = GACGGTCTCCTTTTCCTGGCGTGCTAG; value = 1.27 z-score
Sequence = GAACCTTCAGCTCTAGGTTCGTGCTAG; value = 1.45 z-score
Sequence = TTAGATATCGGGACTGTATTAGTGCTA; value = -0.0343 z-score
Sequence = GACGGACTCCTTATCCTGACGTGCTAG; value = 1.13 z-score
Sequence = TCATCATTGCATATAGAACTGTGCTAG; value = 0.684 z-score
Sequence = TTAGCTTTCGACTTTCGGTTAGTGCTA; value = 11.5 z-score
Sequence = TCAAATTTTTTTCTAAGACTGTGCTAG; value = -0.366 z-score
Sequence = AGAGCAGACCCAGAGTGGCAGTGCTAG; value = -0.733 z-score
Sequence = TTGCCTCTGCTGCTGGCCGCGTGCTAG; value = -0.0107 z-score
Sequence = TTAGGTATCGGTCACGGTTAGTGCTAG; value = 0.18 z-score
Sequence = GACGGCCTCCTACTGCTGACGTGCTAG; value = 0.281 z-score
Sequence = GGCCTCTCTGTTTTCCTGTTGTGCTAG; value = 2.88 z-score
Sequence = TTGGTTTTCCTTATTGCTTCGTGCTAG; value = 2.91 z-score
Sequence = GACGGTATCGACTATCGGGAAGTGCTA; value = -0.028 z-score
Sequence = TTAAGTATCCTACTGCTTTAGTGCTAG; value = 0.507 z-score
Sequence = TCTTTTTCCTAATTGAACCCGTGCTAG; value = 2.14 z-score
Sequence = ATGCTTCTGGTCTTCTGGGCGTGCTAG; value = 0.817 z-score
Sequence = TTAGGTTTCGACACTGGGCTAGTGCTA; value = 2 z-score
Sequence = TTAGGTATCGACAATGGGTTAGTGCTA; value = -0.042 z-score

Set 3 — technique: protein binding microarray; form: double-stranded DNA, one strand shown; medium: in vitro; tested at: not given; relative to: not given; reading: higher = stronger binding; measurement: E-score
Target: Histone acetyltransferase KAT6A, both winged helices, GST fusion (KAT6A, Homo sapiens, UniProt Q92794, residues 1-181)
Setting: 8-mer, flanks averaged, mean of 2 arrays, mostly near background
Target sequence (chain): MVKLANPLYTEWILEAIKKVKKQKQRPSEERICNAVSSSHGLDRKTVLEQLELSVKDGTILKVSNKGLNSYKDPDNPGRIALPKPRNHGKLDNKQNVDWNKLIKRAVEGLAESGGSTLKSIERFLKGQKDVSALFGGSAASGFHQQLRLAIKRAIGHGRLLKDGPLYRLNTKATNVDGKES
Sequence = CGCTGATC; value = 0.27
Sequence = CATCCACA; value = -0.189
Sequence = AGAGTCCC; value = -0.0434
Sequence = AGTGTTTC; value = -0.0649
Sequence = CGTATATA; value = -0.0103
Sequence = GAAATCGC; value = 0.0165
Sequence = ATCACTGA; value = -0.135
Sequence = AGCCGTCC; value = 0.172
Sequence = ACGGACCG; value = 0.234
Sequence = GCTCACGA; value = -0.00545
Sequence = CCGATTCG; value = 0.128
Sequence = CTCAGCGC; value = 0.288
Sequence = TGTAGCAA; value = -0.116
Sequence = AACGAAAT; value = -0.0351
Sequence = AATCCTAT; value = -0.124
Sequence = AGTGCCGG; value = 0.181
Sequence = CAGGCTCA; value = -0.159
Sequence = GACCAGCA; value = -0.152
Sequence = CGACCTCA; value = -0.033
Sequence = AATTCGCA; value = 0.0395
Sequence = ACCCGCCT; value = 0.185
Sequence = CGACAGAG; value = 0.0488
Sequence = ACCAGGCT; value = -0.138
Sequence = AGCACGCT; value = -0.0184
Sequence = AGTTAACT; value = 0.34

Set 4 — technique: RNA Bind-n-Seq; form: RNA; medium: in vitro; tested at: 365 nM; relative to: no-protein control; reading: higher = stronger binding; measurement: RBNS enrichment (R)
Target: RNA binding protein fox-1 homolog 2, RRM domain, GST-SBP tag (RBFOX2, Homo sapiens, UniProt O43251-10, residues 100-194)
Setting: natural RNA segment, single round, ends assumed
Constant ends, left off below: GGGAGUUCUACAGUCCGACGAUC … UGGAAUUCUCGGGUGCCAA
Construct (chain): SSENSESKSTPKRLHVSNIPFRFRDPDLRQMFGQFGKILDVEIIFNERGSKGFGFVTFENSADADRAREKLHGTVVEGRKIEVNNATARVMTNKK
Sequence = UAGUUAGCUGUCUGUUGUCUGUAGCCCAGCUUGAUAAUGGAACUAUACAGCGAAGAGACAAUCUCUGCACUUUGCUAUGUAGCUGUGUACAUAUCACUACAGUUAUAGGA; value = 0.604
Sequence = UUAUUUUGACAAAGGGGAACACUGACUUUCUGAAGGAUUCAGAAAGAACCUUAGUGAAAGGUUCUCAGUCUCUGAGAGUGGACCCUAAUUAACAUAAAGACCAUUCAUCA; value = 0.3
Sequence = CAAAGUCAAGUUUGGGGAAAAGGCAGACUAAGGCCUCCUUUCUCUGACCUCCCAGGAAGAAAAUAGCUUCUCCUACAGUGAUUCAUGUCCCAGGUCCAGGAAAUCCAAUG; value = 0.245
Sequence = AGCAUUUGACUUCCCCAUCAGUACAUUUGUUCAUUUGCUUUCUCUGUGAAACGCCAUGAUUGUCUAAACAAGUCUCCCCUCUGCCCUGAUCCCUUUGUACCAAGUCAAUG; value = 0.481
Sequence = CUCUUCCUCUCCAGAGCCUUGGGAGAAGGACUUUCCCCGGUUGUACUUAAUUGAUUGGUUGUCCCAAGUGUUGCUCUUACUUGAUUUGCCAAAUGCCUCCUGCUUCUCGU; value = 0.786
Sequence = GGUGUCUCUGUCUGAGUUAGCUGCUGGGUGGAGCCUCACAUGUUCCUAUCUGUUACCAUAACAGAGUAGCAUUAAUAGUGUUAAGGAUUGGUGCUAGCCCAUGGGAUCGA; value = 0.346
Sequence = ACUUGUUCUGGCAUUUAUAAAUAGAAAGGACUGUGAGCUGUGGGCUAUGGUCUAAUGUUCAAAGAUAUGGGUGGACAGGACUGUGGAAGAUGGACAUGAUAAACCAGUUC; value = 0.823
Sequence = AUGAAGGUAUAUUUUGUGUUAUAGUUGUUGAUGAGUUCUUUGGUUUUCUGUAUUUUUCCCCCUCUCUUUAAAACAUCACUGAAAUUUCAAUAAAUUUUUAUUGAAAUGUC; value = 0.984
Sequence = CCUACGUGAUGUACAUAGAAUAUUAUAGCCUAAAGAUUUUCCAGUUACUUGCGGUCUUUUUAAAUUGAGGAGCCCCACUUCCACUGUCCACCCCUUGUCUUUGUGUGUCA; value = 0.763

Excerpt of the above (set 3):
Sequence = CTCAGCGC; value = 0.288
Sequence = TGTAGCAA; value = -0.116
Sequence = AACGAAAT; value = -0.0351
Sequence = AATCCTAT; value = -0.124
Sequence = AGTGCCGG; value = 0.181
Sequence = CAGGCTCA; value = -0.159
Sequence = GACCAGCA; value = -0.152
Sequence = CGACCTCA; value = -0.033
